{"data": "Measurements gathered from unrelated publications", "note": "Every numbered part comes from another study and shows a few of its results, in no order. Changes are numbered by the printed parent chain."}
{"data": "Block 1", "target": "RNA binding protein fox-1 homolog 2, RRM domain, GST-SBP tag (RBFOX2, Homo sapiens, UniProt O43251-10, residues 100-194)", "method": "RNA Bind-n-Seq", "molecule type": "RNA", "matrix": "in vitro", "tested at": "365 nM", "notes": "natural RNA segment, single round, ends assumed", "reference": "no-protein control", "reading": "higher = stronger binding", "Residues (chain)": "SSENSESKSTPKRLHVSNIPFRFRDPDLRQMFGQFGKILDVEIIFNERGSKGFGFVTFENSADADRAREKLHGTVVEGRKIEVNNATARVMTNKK"}
{"Strand": "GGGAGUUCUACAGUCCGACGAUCAUUUUACUCCUGGAUGUAUUGAAUGCCCCUUGAGCUUUAUGAGAUACGAGUCCACAUGGAUAAAAUGUUAGAGAGUGGAGUUCUACAGAGGAUUCCAGGAAGAGGCCAUGUGGAAUUCUCGGGUGCCAA", "RBNS enrichment (R)": 1.57}
{"Strand": "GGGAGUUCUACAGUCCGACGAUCCCAGAUCACCCACAUUCCAGAGGCAUUUAAAUAAACAGAGAUGUGGGAUGCAGGACCCCAGCUUCCGUUCCCAAGCCCUGUUGGGAGUCCUUUCCAGUGCUUCAGGAUGCUGGAAUUCUCGGGUGCCAA", "RBNS enrichment (R)": 0.441}
{"Strand": "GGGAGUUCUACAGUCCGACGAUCCUGUCACCCUGAGCACUCUGCGCUGGGGAGGGGUUUAAAUUAUUGACCUUGUACAGUCUGCUUGCUGGCUCUGAAAGCUGGGGUUGGGGGACAGAGUCUCAAGCCCUUAAUGGAAUUCUCGGGUGCCAA", "RBNS enrichment (R)": 0.488}
{"Strand": "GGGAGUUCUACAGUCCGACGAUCACCCCCUGAUGCUUUGAAGGCUAAUUCUCUUCUAAUGGAGUAGCUGUUGCCUAGUAUUCACCUGUGUUACUUUGUAUAUGUCACAGUUCUAUGUUUAAUGCUUUACUAAUUGGAAUUCUCGGGUGCCAA", "RBNS enrichment (R)": 0.672}
{"Strand": "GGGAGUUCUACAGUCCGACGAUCUUCGUUUGAUUUUUUUUCUGUAAAUGUCUGCACUAAGGGUUUCUUUCAGUUUGCCUUUUAUGUAAAUUUUUUACGUAGCUAUUUUUAUACACUGUAAGCUUUGUUCUGGGUGGAAUUCUCGGGUGCCAA", "RBNS enrichment (R)": 0.489}
{"Strand": "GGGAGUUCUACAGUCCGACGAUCUCCUUCCUUGCCCCCCUCUCUUUCUUCCCUCUUUCCCCUCCAGACAUUCUAGUUUGUGGAGGGUUAUUUAAAAAAACAAAAAAGGAAGAUGGUCAAGUUUGUAAAAUAUUUGGAAUUCUCGGGUGCCAA", "RBNS enrichment (R)": 0.536}
{"Strand": "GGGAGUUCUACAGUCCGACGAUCGUUCAAGUAGCAGCUGCUAACCCUUGCACCAGCCCUUGUGGGACUCCCAACACAAGACAAAGCUCAGGAUGCUGGUGAUGCUAGGAAGAUGUCCCUCCCCUCACUGCCCCUGGAAUUCUCGGGUGCCAA", "RBNS enrichment (R)": 0.272}
{"Strand": "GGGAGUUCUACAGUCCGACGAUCUAGUUUGAUUCUGGUUUCCCUCCUACAGUGUGUCCUCCGUCUCUGUGCAGCUCCGUCAUUACCAUAGGGGACUUGGUUUUAGACUCUGAUGAGGAAGAAAAUGGCCAGGGUGGAAUUCUCGGGUGCCAA", "RBNS enrichment (R)": 0.294}
{"data": "Block 2", "target": "ABI1, truncated, D143A, DHFR fusion (Arabidopsis thaliana)", "method": "DHFR PCA, deep sequencing", "matrix": "yeast", "notes": "methotrexate growth selection, single substitutions", "added": "(+)-ABA 0.11 µM", "reference": "wild-type fitted maximum", "reading": "higher = stronger binding", "starting sequence": "PYL1, truncated, DHFR fusion (Arabidopsis thaliana); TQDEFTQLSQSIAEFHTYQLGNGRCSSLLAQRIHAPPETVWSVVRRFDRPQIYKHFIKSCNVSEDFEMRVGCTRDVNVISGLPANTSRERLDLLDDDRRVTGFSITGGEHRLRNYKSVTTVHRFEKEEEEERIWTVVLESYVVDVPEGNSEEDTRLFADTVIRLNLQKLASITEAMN"}
{"Variant": "Y53I", "relative binding score [%]": -4.87}
{"Variant": "E139P", "relative binding score [%]": 8.93}
{"Variant": "D96Y", "relative binding score [%]": -1.43}
{"Variant": "A30F", "relative binding score [%]": 26.1}
{"Variant": "H110T", "relative binding score [%]": 50.1}
{"Variant": "C25I", "relative binding score [%]": 52.3}
{"Variant": "S42A", "relative binding score [%]": 36.5}
{"Variant": "V136Q", "relative binding score [%]": -2.05}
{"Variant": "C60K", "relative binding score [%]": -4.67}
{"Variant": "N149H", "relative binding score [%]": 37.4}
{"Variant": "S26G", "relative binding score [%]": 26}
{"Variant": "Y18A", "relative binding score [%]": 2.08}
{"Variant": "K58Y", "relative binding score [%]": 1.94}
{"Variant": "H16N", "relative binding score [%]": -2.69}
{"Variant": "V145H", "relative binding score [%]": -1.84}
{"Variant": "Y18T", "relative binding score [%]": -0.367}
{"Variant": "R45T", "relative binding score [%]": 3.91}
{"Variant": "S150C", "relative binding score [%]": 18.7}
{"Variant": "E152G", "relative binding score [%]": 2.79}
{"Variant": "L93D", "relative binding score [%]": -5.63}
{"Variant": "T1M", "relative binding score [%]": 35}
{"Variant": "L28I", "relative binding score [%]": 65.2}
{"Variant": "H122A", "relative binding score [%]": -6.73}
{"Variant": "L112Y", "relative binding score [%]": 3.16}
{"data": "Block 3", "target": "Fragile X messenger ribonucleoprotein 1, C-terminal low-complexity region (Fmr1, Mus musculus, UniProt P35922)", "method": "RNA Bind-n-Seq", "molecule type": "RNA", "matrix": "in vitro", "tested at": "200 nM", "notes": "whole 134-nt RNA, ends assumed", "added": "150 mM LiCl", "reference": "input library", "reading": "higher = stronger binding", "library": "7-deaza-guanosine replaces G"}
{"Strand": "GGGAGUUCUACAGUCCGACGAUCUCCUCAAGUCCUGUGCUACACAUCGUAUGUACCGAAUCGGCGGGCGGCGGGAAAGUAUUAUGUUACGCCGUUCGGAUCUGCACUUCCAGCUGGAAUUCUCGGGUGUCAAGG", "log2 enrichment": 1.08}
{"Strand": "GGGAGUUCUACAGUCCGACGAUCAGUCCUGUGCUACACAUCGUAUGUACCGAAUCAAAUUUUUUUAAACCCAAAUUUAAAAAAGUAUUAUGUUACGCCGUUCGGAUCUGCACUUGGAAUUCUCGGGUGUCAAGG", "log2 enrichment": -3.12}
{"Strand": "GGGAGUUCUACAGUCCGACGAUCAAGUCCUGUGCUACACAUCGUAUGUACCGAAUCGGGCCCCGGCCCCGGGGCCCCGGAAAGUAUUAUGUUACGCCGUUCGGAUCUGCACUUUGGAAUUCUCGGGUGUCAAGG", "log2 enrichment": -2.64}
{"Strand": "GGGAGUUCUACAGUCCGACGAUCGCCUGGCGCUGGCCAACAAUAGCACCCUCACCAUUGGCACCAUCGAUGAGAUCCAGAAGCUGCACAUUCGCACAGUUCCCCUCUAUGAGUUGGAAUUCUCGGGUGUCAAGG", "log2 enrichment": 0.763}
{"Strand": "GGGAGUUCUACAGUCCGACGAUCUCAAGUCCUGUGCUACACAUCGUAUGUACCGAAUCGGUUUUUGGUGGUUUUUGGAAAGUAUUAUGUUACGCCGUUCGGAUCUGCACUUCCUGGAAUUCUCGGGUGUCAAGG", "log2 enrichment": -0.693}
{"Strand": "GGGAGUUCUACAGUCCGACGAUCCACAGACAACACGCACCCACACAGACACAGAGGGAAGGGGUUGGGAUGGGGACAGGGUGGACAGCAGGGCGGGGUAGGACCCCAGCCCCUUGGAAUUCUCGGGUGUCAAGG", "log2 enrichment": -1.52}
{"Strand": "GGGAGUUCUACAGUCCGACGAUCUAACUUUAGAGGAGGAUCUGAUGGAUAUGGCAGUGGACGUGGAUUUGGGGAUGGCUAUAAUGUGUAUGGAGGAGGACCUGGAGGUGGCAAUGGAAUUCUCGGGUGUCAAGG", "log2 enrichment": 1.11}
{"Strand": "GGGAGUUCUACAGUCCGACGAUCGCAGGAAGUAAAAACAAAUGGAAAUGCUUCGGAUACUGGCAGGGGUGGGGGUUGCUAAGGAAAGGGUGGGAUGGGAGUGGGUAAAGAGUUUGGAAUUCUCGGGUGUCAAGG", "log2 enrichment": 1.5}
{"data": "Block 4", "target": "Interferon regulatory factor 7, full length, phosphomimetic (IRF7, Homo sapiens, UniProt Q92985, residues 1-503, S101K/S471D/S472D/S475D/S476D/S477D/S483D/S484D/S487D)", "method": "protein-binding microarray", "molecule type": "double-stranded DNA, one strand shown", "matrix": "in vitro", "tested at": "250 nM", "notes": "60-bp whole probe", "added": "salmon DNA 0.4 mg/ml", "reference": "random background probes", "reading": "higher = stronger binding", "shared flanks, not repeated": "GCCTAGCAC … GTCTTGATTCGCTTGACGCTGCTG", "Construct (chain)": "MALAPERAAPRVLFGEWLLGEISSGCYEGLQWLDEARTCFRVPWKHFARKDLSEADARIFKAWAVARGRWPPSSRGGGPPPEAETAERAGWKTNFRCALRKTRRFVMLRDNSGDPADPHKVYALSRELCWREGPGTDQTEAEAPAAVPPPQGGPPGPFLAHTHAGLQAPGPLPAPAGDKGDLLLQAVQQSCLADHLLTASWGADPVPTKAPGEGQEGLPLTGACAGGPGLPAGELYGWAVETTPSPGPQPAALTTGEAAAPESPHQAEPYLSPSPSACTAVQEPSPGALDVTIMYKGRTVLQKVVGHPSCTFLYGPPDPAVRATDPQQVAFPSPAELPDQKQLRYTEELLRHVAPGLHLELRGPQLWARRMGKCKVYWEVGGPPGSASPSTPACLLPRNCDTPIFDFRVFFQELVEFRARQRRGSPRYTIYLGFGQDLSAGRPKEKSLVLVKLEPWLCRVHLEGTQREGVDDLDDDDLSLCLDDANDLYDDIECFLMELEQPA"}
{"Strand": "CTTCCTCTTTCACTGGTCCTGTGCTAG", "log fluorescence [z-score]": 2.39}
{"Strand": "GACGGACTGGACTATCGAGACGTGCTA", "log fluorescence [z-score]": -0.442}
{"Strand": "GACGGTCTGGACTATCGGGACGTGCTA", "log fluorescence [z-score]": -0.593}
{"Strand": "TACGATTTCGGGACTGGAGACGTGCTA", "log fluorescence [z-score]": 0.375}
{"Strand": "TTAGGACTGCGGTTTCGGTTAGTGCTA", "log fluorescence [z-score]": 6.97}
{"Strand": "GACTGTATCGGGTATCGGGACGTGCTA", "log fluorescence [z-score]": -0.0412}
{"Strand": "ATAACCTTGAACTTCGGCCTGTGCTAG", "log fluorescence [z-score]": -0.264}
{"Strand": "AGTATTACCTCATCTTTCCCTGTGCTA", "log fluorescence [z-score]": 0.652}
{"Strand": "GACGGATTGCTTCTCCTGACGTGCTAG", "log fluorescence [z-score]": -0.239}
{"Strand": "TTAGATTTCTGTCTCGATTAGTGCTAG", "log fluorescence [z-score]": 0.935}
{"Strand": "GACGAACTGCTACTGCTGACGTGCTAG", "log fluorescence [z-score]": -0.618}
{"Strand": "ATTTTTTTCTAATTGAAATCGTGCTAG", "log fluorescence [z-score]": 2.42}
{"Strand": "TTTTGAAGTTTGGCGTTGACGTGCTAG", "log fluorescence [z-score]": -0.504}
{"Strand": "TGTACTTTCTATCTCTGTTTGTGCTAG", "log fluorescence [z-score]": 1.91}
{"Strand": "TCACTCCTCCAGGTTCTCACTGTGCTA", "log fluorescence [z-score]": 0.488}
{"Strand": "GACGAACCGAGTCTCGAGACGTGCTAG", "log fluorescence [z-score]": 1.54}
{"Strand": "ATTGAGAATTCCACTCCGCTGTGCTAG", "log fluorescence [z-score]": -0.0863}
{"note": "Some of these lines once more (block 2):"}
{"Variant": "E139P", "relative binding score [%]": 8.93}
{"Variant": "D96Y", "relative binding score [%]": -1.43}
{"Variant": "A30F", "relative binding score [%]": 26.1}
{"Variant": "H110T", "relative binding score [%]": 50.1}
